{"data": "Published values collected from several papers", "note": "Protocols differ between the studies behind these lines. Several values in a cell are separate wells, animals, samples, runs or records."}
{"Compound": "CS(=O)(=O)c1ccc(/C=N/NC(=O)Cn2ccc(=O)c3ccccc32)cc1", "organism": "Botrytis cinerea", "test": "microbial growth", "conditions": "50 µg/mL", "measurement": "inhibition", "value": "18.8%"}
{"Compound": "C/C=C/c1ccc(OCc2ccccc2)c(OC)c1", "organism": "Spodoptera frugiperda", "test system": "larvae", "conditions": "1000 µg/mL", "how to read": "reference: untreated control", "measurement": "antifeedant index", "value": "35.6%"}
{"Compound": "Cc1nc2c(cnn2C(C)C)cc1C(=O)NCc1ccc(C(C)O)c(C)n1 (centres unmarked)", "organism": "Drosophila melanogaster", "test system": "APP Alzheimer model adult flies", "conditions": "oral in food, 100 µM, dosed from embryogenesis", "measurement": "median survival", "value": "31 days"}
{"Compound": "CC(C)C[C@H](NC(=O)CNC(=O)[C@H](Cc1ccccc1)NC(=O)[C@H](Cc1ccccc1)NC(=O)[C@H](CCCNC(=N)N)NC(=O)[C@H](CCCCN)NC(=O)[C@H](CO)NC(=O)[C@H](CC(N)=O)NC(=O)[C@H](CC(C)C)NC(=O)CNC(=O)[C@H](CO)NC(=O)[C@@H](NC(=O)[C@@H](N)CC(C)C)C(C)C)C(=O)N[C@@H](CCCCN)C(=O)NCC(=O)NCC(=O)N[C@@H](CC(N)=O)C(=O)N[C@@H](CC(C)C)C(=O)N[C@@H](Cc1ccccc1)C(=O)N[C@@H](CCCCN)C(=O)N[C@@H](CCCCN)C(=O)N[C@@H](C)C(=O)N[C@@H](CC(C)C)C(=O)N[C@@H](CCCCN)C(=O)N[C@@H](CC(N)=O)C(=O)N[C@H](C(=O)N[C@@H](CO)C(=O)N[C@H](C(=O)N[C@@H](Cc1ccccc1)C(=O)NCC(=O)N[C@@H](CCCCN)C(=O)N[C@@H](C)C(=O)NCC(=O)N[C@H](C(=O)N[C@H](C(=O)N[C@@H](CO)C(=O)N[C@@H](C)C(=O)N[C@@H](CC(C)C)C(=O)N[C@@H](CCCNC(=N)N)C(=O)O)[C@@H](C)O)C(C)C)C(C)C)C(C)C", "organism": "Gram-negative bacteria", "test": "MIC", "conditions": "concentration not given", "measurement": "antibacterial activity", "value": "active"}
{"Compound": "CC(C)C[C@@H]1NC(=O)[C@H](CCCCN)NC(=O)[C@H](C(C)C)NC(=O)[C@@H]2CCCN2C(=O)[C@@H](Cc2ccc(O)cc2)NC(=O)[C@H](CC(C)C)NC(=O)[C@H](CCCCN)NC(=O)[C@H](C(C)C)NC(=O)[C@H](CCCCN)NC(=O)[C@H](CC(C)C)NC(=O)[C@@H]2CCCN2C(=O)[C@@H](Cc2ccc(O)cc2)NC(=O)[C@H](C(C)C)NC(=O)[C@H](CCCCN)NC1=O", "organism": "Gram-negative bacteria", "conditions": "24 h, 7 strains", "measurement": "MIC geometric mean", "value": "95.1 µg/mL"}
{"Compound": "C/C=C/c1ccc(OC(C)=O)c(OC)c1", "organism": "Spodoptera frugiperda", "test system": "larvae", "conditions": "25 µg/mL", "how to read": "reference: untreated control", "measurement": "antifeedant index", "value": "15.6%"}
{"Compound": "CC(=O)c1c(O)c(C)c(O)c2c1OC1=CC(=O)/C3=C(/C)N[C@H](C(=O)O)CC1=CC=C(O)C=C[C@]2(C)C3=O", "organism": "Candida tropicalis", "test": "broth microdilution", "test system": "ATCC 750 fluconazole and amphotericin B resistant", "conditions": "24 and 48 h", "measurement": "MIC99", "value": "11.8 µM"}
{"Compound": "CC(=O)O[C@@H]1C[C@@H](C)O[C@H]2O[C@@H]3C[C@@H]4CC[C@@H]5[C@H](CC[C@]6(C)[C@@H](C7=CC(=O)OC7)CC[C@]56O)[C@@]4(C)C[C@H]3O[C@]21O", "organism": "Schistosoma mansoni", "test system": "mouse, chronic infection", "conditions": "oral, 10 mg/kg single dose", "measurement": "worm burden reduction", "value": "38% and 38.1%"}
{"Compound": "CC(=O)OC1C(C)C(OC2CC3OCOC3C(C)O2)C=COC2(C)Oc3c(C)c(O)c4c(c3C2=O)C(=O)C=C(NC(=O)C(C)=CC=CC(C(C)OC(=O)C(C)(C)CC(=O)O)C(O)C(C)C(O)C1C)C4=O (centres unmarked)", "organism": "Providencia rettgeri", "test system": "NCTC 7475", "conditions": "concentration not given", "measurement": "antibacterial activity", "value": "active"}
{"Compound": "C=CCc1ccc(OCC=C(C)C)c(OC)c1", "organism": "Spodoptera frugiperda", "test system": "larvae", "conditions": "25 µg/mL", "how to read": "reference: untreated control", "measurement": "antifeedant index", "value": "15.4%"}
{"Compound": "CC[C@H](C)[C@H](NC(=O)[C@H](CCCCN)NC(=O)[C@H](CCCCN)NC(=O)[C@H](CC(C)C)NC(=O)[C@H](CCCCN)NC(=O)[C@H](CCC(=O)O)NC(=O)[C@H](CCCCN)NC(=O)[C@@H](NC(=O)[C@H](CCCCN)NC(=O)[C@H](CC(N)=O)NC(=O)[C@H](CCCNC(=N)N)NC(=O)[C@H](Cc1ccccc1)NC(=O)[C@H](CCCCN)NC(=O)[C@H](CCCNC(=N)N)NC(=O)[C@H](CC(C)C)NC(=O)[C@H](CCCNC(=N)N)NC(=O)[C@H](CCCCN)NC(=O)[C@H](CCCNC(=N)N)NC(=O)[C@@H](N)CC(C)C)[C@@H](C)CC)C(=O)NCC(=O)N[C@@H](CCC(N)=O)C(=O)N[C@@H](CCCCN)C(=O)N[C@H](C(=O)N[C@@H](CCC(N)=O)C(=O)NCC(=O)N[C@@H](Cc1ccccc1)C(=O)N[C@H](C(=O)N1CCC[C@H]1C(=O)N[C@@H](CCCCN)C(=O)N[C@@H](CC(C)C)C(=O)O)C(C)C)[C@@H](C)CC", "organism": "Staphylococcus warneri", "test": "inhibition zone", "test system": "ATCC 1.2824", "conditions": "LB agar, overnight", "measurement": "lethal concentration", "value": "0.78 µM"}
{"Compound": "C=C(C)[C@@H]1CC[C@]2(COS(=O)(=O)c3ccc(C)cc3)CC[C@]3(C)[C@H](CC[C@@H]4[C@@]5(C)CCCNC(C)(C)[C@@H]5CC[C@]43C)[C@@H]12", "organism": "Human cytomegalovirus", "test system": "HFF, AD169", "how to read": "reference: CC50 over EC50", "measurement": "selectivity index", "value": "< 3"}
{"Compound": "C=CCc1ccc(OCc2ccccc2)c(OC)c1", "organism": "Spodoptera frugiperda", "test system": "larvae", "conditions": "100 µg/mL", "how to read": "reference: untreated control", "measurement": "antifeedant index", "value": "37.3%"}
{"Compound": "O=C(C1CCN(c2nnnn2-c2ccccc2)CC1)N1CCCc2ccccc21", "organism": "Plasmodium falciparum", "test": "[3H]hypoxanthine incorporation", "test system": "TM90 C2b", "measurement": "IC50", "value": "720 nM"}
{"Compound": "CCC(NC(=O)NNS(=O)(=O)c1ccc(C)cc1)(C(F)(F)F)C(F)(F)F", "organism": "Rotavirus", "test system": "MA104", "conditions": "concentration not given", "measurement": "antiviral activity", "value": "inactive"}
{"Compound": "CC[C@H](C)[C@H](NC(=O)[C@H](CO)NC(=O)[C@H](CO)NC(=O)[C@H](Cc1ccccc1)NC(=O)CN)C(=O)N[C@@H](Cc1ccccc1)C(=O)N[C@@H](CCCNC(=N)N)C(=O)NCC(=O)N[C@H](C(=O)N[C@@H](C)C(=O)N[C@@H](CCCCN)C(N)=O)C(C)C", "organism": "Escherichia coli", "test system": "ATCC 8739", "conditions": "with: 8 mM ZnCl2", "measurement": "MBC", "value": "> 128 µM"}
{"Compound": "CC[C@H](C)[C@H](NC(=O)[C@H](CCCCN)NC(=O)[C@H](CCCCN)NC(=O)[C@H](CC(C)C)NC(=O)[C@H](CCCCN)NC(=O)[C@H](CCC(=O)O)NC(=O)[C@H](CCCCN)NC(=O)[C@@H](NC(=O)[C@H](CCCCN)NC(=O)[C@H](CC(N)=O)NC(=O)[C@H](CCCNC(=N)N)NC(=O)[C@H](Cc1ccccc1)NC(=O)[C@H](CCCCN)NC(=O)[C@H](CCCNC(=N)N)NC(=O)[C@H](CC(C)C)NC(=O)[C@H](CCCNC(=N)N)NC(=O)[C@H](CCCCN)NC(=O)[C@H](CCCNC(=N)N)NC(=O)[C@H](CC(C)C)NC(=O)[C@@H](N)CCCNC(=N)N)[C@@H](C)CC)C(=O)NCC(=O)N[C@@H](CCC(N)=O)C(=O)N[C@@H](CCCCN)C(=O)N[C@H](C(=O)N[C@@H](CCC(N)=O)C(=O)NCC(=O)N[C@@H](Cc1ccccc1)C(=O)N[C@H](C(=O)N1CCC[C@H]1C(=O)N[C@@H](CCCCN)C(=O)N[C@@H](CC(C)C)C(=O)N[C@@H](CCC(N)=O)C(=O)N1CCC[C@H]1C(=O)N[C@@H](CO)C(=O)N[C@@H](CCCCN)C(=O)N[C@@H](CCC(N)=O)C(=O)N[C@@H](CO)C(=O)O)C(C)C)[C@@H](C)CC", "organism": "Staphylococcus warneri", "test": "inhibition zone", "test system": "ATCC 1.2824", "conditions": "LB agar, overnight", "measurement": "lethal concentration", "value": "2.17 µM"}
{"note": "A few entries again:"}
{"Compound": "CC(=O)OC1C(C)C(OC2CC3OCOC3C(C)O2)C=COC2(C)Oc3c(C)c(O)c4c(c3C2=O)C(=O)C=C(NC(=O)C(C)=CC=CC(C(C)OC(=O)C(C)(C)CC(=O)O)C(O)C(C)C(O)C1C)C4=O (centres unmarked)", "organism": "Providencia rettgeri", "test system": "NCTC 7475", "conditions": "concentration not given", "measurement": "antibacterial activity", "value": "active"}
{"Compound": "C=CCc1ccc(OCC=C(C)C)c(OC)c1", "organism": "Spodoptera frugiperda", "test system": "larvae", "conditions": "25 µg/mL", "how to read": "reference: untreated control", "measurement": "antifeedant index", "value": "15.4%"}
